Published values from different studies.
Each line is one published result; not all experiments were run side by side. ± gives the spread as reported.
NR3C1: Glucocorticoid receptor (NR3C1, Homo sapiens, UniProt P04150)
NMT1: Glycylpeptide N-tetradecanoyltransferase 1 (NMT1, Homo sapiens, UniProt P30419)
ADORA1: Adenosine receptor A1 (ADORA1, Homo sapiens, UniProt P30542)

Sequences of proteins named here, by UniProt entry; tags and fusion partners are left off. Residues count along the entry.
UniProt P04150, whole entry: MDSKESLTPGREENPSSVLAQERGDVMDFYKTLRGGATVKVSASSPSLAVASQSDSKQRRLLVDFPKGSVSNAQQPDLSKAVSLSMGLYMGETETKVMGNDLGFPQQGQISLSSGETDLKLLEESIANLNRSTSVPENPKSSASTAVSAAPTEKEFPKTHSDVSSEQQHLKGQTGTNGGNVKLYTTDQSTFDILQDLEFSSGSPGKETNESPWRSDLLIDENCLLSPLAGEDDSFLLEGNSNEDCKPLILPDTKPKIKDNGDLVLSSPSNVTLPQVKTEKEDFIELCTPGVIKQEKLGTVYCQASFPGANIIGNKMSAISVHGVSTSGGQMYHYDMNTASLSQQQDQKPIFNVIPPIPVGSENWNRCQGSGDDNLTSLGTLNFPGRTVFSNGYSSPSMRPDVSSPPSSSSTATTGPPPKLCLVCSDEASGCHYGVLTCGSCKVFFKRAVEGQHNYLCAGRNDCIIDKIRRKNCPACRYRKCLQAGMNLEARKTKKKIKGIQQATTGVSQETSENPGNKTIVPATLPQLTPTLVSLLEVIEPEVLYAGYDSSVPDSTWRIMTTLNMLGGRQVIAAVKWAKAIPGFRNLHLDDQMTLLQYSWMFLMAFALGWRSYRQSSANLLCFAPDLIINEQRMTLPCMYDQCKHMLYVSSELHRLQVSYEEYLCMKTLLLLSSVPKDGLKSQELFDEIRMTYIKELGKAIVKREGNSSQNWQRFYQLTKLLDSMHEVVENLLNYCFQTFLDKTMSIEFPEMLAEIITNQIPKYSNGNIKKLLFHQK
UniProt P30419, whole entry: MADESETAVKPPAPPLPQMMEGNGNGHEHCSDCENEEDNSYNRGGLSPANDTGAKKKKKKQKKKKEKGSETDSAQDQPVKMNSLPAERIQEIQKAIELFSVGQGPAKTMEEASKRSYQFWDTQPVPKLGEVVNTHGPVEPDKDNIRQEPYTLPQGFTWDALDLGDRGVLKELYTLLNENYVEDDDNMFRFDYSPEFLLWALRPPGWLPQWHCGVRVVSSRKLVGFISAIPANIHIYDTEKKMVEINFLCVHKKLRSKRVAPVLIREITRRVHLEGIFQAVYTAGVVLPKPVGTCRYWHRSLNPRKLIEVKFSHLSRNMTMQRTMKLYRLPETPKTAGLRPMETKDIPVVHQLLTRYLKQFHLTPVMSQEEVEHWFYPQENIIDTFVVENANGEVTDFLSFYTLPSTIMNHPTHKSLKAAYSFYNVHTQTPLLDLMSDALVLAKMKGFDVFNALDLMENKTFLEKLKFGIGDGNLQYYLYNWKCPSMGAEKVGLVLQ
UniProt P30542, whole entry: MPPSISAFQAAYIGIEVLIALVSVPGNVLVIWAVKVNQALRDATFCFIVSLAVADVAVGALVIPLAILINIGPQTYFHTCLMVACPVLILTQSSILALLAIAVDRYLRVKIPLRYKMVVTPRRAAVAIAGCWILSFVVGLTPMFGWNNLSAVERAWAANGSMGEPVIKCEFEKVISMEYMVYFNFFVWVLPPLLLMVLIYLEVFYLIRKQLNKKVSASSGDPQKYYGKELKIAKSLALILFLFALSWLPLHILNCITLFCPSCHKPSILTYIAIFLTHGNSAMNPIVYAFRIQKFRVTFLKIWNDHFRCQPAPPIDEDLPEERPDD
UniProt P60752, whole entry: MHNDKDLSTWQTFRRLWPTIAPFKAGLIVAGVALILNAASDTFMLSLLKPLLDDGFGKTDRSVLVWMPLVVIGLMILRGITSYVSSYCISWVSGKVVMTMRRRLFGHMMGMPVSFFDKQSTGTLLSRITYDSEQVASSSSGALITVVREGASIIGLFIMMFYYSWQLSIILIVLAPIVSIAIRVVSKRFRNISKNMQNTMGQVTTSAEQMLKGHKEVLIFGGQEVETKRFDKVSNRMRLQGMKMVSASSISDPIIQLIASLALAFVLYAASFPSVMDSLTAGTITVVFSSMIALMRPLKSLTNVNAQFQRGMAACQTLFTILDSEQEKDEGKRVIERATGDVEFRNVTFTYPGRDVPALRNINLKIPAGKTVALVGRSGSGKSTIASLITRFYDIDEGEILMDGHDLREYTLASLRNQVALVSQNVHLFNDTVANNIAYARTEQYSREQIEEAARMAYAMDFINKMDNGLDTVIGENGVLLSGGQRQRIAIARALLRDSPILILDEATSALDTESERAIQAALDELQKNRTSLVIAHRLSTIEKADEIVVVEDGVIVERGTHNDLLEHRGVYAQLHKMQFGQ
UniProt Q13304, whole entry: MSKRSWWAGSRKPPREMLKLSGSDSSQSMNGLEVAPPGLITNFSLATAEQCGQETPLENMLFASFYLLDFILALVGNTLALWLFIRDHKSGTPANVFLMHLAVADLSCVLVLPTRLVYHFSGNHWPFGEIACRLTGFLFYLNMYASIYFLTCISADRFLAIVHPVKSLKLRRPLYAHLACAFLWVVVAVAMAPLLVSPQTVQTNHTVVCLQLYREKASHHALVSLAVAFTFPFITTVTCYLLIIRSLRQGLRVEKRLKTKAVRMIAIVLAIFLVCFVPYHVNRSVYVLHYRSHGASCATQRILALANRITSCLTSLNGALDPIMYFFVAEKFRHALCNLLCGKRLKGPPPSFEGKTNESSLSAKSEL
UniProt P41148, 22-804 limits assumed: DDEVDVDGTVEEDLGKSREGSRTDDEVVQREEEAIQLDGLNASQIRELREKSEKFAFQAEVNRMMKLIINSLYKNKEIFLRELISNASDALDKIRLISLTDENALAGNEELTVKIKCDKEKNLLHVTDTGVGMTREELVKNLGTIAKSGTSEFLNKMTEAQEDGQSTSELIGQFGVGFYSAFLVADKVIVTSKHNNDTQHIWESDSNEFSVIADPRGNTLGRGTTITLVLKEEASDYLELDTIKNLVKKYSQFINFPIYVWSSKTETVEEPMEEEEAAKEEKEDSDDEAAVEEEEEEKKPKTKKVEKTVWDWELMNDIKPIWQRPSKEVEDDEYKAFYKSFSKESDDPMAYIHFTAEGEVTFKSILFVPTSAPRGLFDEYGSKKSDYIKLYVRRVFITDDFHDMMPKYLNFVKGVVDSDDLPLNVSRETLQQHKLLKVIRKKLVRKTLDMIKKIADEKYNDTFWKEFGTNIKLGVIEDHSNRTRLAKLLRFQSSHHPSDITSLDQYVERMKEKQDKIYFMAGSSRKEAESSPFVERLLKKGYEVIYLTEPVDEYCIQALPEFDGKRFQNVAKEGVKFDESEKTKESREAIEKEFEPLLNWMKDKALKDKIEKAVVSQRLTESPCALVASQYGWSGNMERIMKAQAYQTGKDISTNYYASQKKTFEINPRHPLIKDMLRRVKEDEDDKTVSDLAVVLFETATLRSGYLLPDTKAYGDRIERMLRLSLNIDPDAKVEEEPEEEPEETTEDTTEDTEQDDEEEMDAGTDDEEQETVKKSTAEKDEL
UniProt Q13526, whole entry: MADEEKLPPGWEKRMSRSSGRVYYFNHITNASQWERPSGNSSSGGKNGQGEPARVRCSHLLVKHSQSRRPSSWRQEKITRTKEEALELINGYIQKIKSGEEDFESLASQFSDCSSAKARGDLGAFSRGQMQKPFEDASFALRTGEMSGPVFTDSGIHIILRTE
UniProt P36888, 27-993 limits assumed: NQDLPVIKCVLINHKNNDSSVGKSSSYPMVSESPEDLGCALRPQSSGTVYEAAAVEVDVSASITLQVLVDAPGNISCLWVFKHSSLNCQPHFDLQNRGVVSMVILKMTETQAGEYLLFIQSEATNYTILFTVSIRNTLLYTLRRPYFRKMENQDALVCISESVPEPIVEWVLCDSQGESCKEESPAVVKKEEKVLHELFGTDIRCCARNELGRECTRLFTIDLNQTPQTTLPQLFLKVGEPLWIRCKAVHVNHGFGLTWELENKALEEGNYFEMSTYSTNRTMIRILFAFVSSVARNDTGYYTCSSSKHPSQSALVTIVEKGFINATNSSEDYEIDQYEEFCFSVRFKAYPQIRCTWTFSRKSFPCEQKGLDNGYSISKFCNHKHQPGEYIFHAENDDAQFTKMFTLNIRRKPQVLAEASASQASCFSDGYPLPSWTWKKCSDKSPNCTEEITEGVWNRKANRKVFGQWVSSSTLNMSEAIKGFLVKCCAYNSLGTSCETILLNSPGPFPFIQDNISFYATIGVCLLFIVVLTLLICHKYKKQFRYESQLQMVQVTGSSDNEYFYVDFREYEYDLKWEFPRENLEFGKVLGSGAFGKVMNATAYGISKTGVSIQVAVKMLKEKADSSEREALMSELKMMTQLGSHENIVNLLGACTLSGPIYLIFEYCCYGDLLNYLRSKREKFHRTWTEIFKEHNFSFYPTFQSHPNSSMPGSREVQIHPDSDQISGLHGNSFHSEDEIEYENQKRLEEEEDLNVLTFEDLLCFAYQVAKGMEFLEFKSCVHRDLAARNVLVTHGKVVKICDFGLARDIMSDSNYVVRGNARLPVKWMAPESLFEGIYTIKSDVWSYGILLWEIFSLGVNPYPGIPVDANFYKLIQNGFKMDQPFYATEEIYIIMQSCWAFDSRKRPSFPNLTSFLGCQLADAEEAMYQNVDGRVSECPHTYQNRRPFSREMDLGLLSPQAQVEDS
UniProt P00747, 581-810 limits assumed: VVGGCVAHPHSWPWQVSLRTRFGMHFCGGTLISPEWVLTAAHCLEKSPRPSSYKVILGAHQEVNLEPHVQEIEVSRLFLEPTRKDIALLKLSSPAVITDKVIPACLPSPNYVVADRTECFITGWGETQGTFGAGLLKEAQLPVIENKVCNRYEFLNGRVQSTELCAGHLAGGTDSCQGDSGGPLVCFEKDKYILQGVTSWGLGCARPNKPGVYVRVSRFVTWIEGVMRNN
UniProt P00747, 98-580 partner limits assumed: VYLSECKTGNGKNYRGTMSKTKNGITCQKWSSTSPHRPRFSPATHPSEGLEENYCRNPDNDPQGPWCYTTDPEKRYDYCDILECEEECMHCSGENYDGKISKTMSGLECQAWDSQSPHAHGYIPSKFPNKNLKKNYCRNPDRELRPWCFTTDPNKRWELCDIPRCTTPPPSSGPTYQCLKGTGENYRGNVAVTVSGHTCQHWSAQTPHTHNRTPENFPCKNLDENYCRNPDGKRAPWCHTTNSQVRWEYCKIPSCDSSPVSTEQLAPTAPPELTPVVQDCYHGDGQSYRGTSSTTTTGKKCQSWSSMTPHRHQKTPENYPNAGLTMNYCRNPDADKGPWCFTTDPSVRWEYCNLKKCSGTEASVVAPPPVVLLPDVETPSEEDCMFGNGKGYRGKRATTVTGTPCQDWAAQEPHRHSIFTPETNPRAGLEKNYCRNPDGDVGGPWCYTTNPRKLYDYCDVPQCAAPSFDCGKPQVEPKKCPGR
UniProt O96017, whole entry: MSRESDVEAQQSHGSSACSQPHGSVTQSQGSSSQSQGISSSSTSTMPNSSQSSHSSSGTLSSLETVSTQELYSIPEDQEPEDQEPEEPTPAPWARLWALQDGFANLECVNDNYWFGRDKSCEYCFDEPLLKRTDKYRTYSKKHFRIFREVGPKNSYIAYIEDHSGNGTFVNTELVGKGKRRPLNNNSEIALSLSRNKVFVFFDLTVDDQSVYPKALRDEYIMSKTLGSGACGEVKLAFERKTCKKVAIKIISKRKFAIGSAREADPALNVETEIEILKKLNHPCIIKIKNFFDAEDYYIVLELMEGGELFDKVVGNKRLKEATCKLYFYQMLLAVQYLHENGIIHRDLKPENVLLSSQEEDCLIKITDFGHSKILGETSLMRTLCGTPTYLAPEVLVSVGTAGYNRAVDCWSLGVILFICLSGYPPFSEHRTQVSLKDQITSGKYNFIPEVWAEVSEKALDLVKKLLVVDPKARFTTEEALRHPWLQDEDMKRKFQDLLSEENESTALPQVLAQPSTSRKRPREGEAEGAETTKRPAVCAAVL
UniProt O00519, whole entry: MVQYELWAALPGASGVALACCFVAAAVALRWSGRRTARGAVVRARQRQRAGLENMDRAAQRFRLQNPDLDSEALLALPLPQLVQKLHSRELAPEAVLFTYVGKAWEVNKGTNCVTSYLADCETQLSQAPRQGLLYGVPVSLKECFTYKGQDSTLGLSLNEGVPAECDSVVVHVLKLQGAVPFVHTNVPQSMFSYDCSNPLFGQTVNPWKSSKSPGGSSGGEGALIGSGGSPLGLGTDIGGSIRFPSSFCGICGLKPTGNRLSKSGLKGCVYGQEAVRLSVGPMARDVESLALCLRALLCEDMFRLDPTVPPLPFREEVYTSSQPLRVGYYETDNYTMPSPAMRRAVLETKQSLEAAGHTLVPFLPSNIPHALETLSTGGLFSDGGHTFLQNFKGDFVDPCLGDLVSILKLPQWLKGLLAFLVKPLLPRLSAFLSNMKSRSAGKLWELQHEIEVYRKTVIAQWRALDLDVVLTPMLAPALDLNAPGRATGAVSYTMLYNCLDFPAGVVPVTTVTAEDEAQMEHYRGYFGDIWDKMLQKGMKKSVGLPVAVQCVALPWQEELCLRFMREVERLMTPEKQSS
UniProt O88531, 28-306 limits assumed: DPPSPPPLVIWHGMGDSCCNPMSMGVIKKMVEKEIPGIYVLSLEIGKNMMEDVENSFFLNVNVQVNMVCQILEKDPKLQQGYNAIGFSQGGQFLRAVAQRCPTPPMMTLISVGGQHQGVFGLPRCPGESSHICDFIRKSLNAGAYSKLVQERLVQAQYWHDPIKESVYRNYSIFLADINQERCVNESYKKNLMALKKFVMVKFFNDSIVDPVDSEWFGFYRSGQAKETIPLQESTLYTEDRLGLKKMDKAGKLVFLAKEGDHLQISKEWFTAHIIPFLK

`CCCCCCCCCCCCCC(=O)O[C@H](CCCCCCCCCCC)CC(=O)O[C@@H]1[C@@H](NC(=O)C[C@@H](CCCCCCCCCCC)OC(=O)CCCCCCCCCCC)[C@H](OC[C@H]2O[C@H](OP(=O)(O)O)[C@H](NC(=O)C[C@H](O)CCCCCCCCCCC)[C@@H](OC(=O)C[C@H](O)CCCCCCCCCCC)[C@@H]2O)O[C@H](CO)[C@H]1OP(=O)(O)O` — result for “binding affinity decrease”: about 7 fold (msbA (Escherichia coli, UniProt P60752); fluorescence quenching; concentration not given, 10 °C, daunorubicin site occupied first; reference: daunorubicin site empty over occupied).
With `O=C(Nc1ccc(Cl)cc1)C(NS(=O)(=O)c1cccs1)c1ccccc1` (single isomer, unassigned) the Emax was 94.1 ± 3.22% (Uracil nucleotide/cysteinyl leukotriene receptor, long isoform (GPR17, Homo sapiens, UniProt Q13304); calcium mobilization, antagonist; 1321N1 stably expressing GPR17; fitted at highest concentration; higher = stronger inhibition).
`CC(C)c1cc2c(N3CCN(C4=NCC(C)(C)S4)CC3)ncnc2s1`: binding “no binding” (Menin (MEN1, Homo sapiens, UniProt O00255, Y323K); thermal shift; concentration not given).
With `COC(=O)c1c(O)cc(O)c(Cl)c1CCc1ccc(O)cc1Cc1ccccc1` the selectivity ratio was 3 fold (Endoplasmin (HSP90B1, Canis lupus familiaris, UniProt P41148); fluorescence polarization; together with: FITC-geldanamycin tracer; reference: Grp94 over Hsp90α).
For `Fc1cccc(-n2cnc3c(NCc4nc5cc(Cl)ccc5[nH]4)nc(N4CCNCC4)nc32)c1`, the remaining binding was 5% (PRKCQ (Homo sapiens, UniProt Q04759); KINOMEscan competition binding; 10 µM; reference: control).
Under “time to maximal degradation”, `O=C1CCC(N2C(=O)c3cccc(NCCOCCOCCOCCN4CCN(c5ccc(-c6ccc7c(c6)C(=O)N(C(C(=O)Nc6nccs6)c6ccccc6)C7)cn5)CC4)c3C2=O)C(=O)N1` (stereo not drawn) is recorded as 24 to 48 h (EGFR (Homo sapiens, UniProt P00533, L858R/T790M); degrader, Western blot; H1975; 0.1 µM).
`CC(=O)[C@]1(O)CC[C@@H]2[C@H]3C[C@@H](C)C4=CC(=O)CC[C@@]4(C)[C@H]3[C@@H](O)C[C@]21C` has a Hill slope of 0.65 (NR3C1; nuclear translocation, agonist, enzyme fragment complementation).
`O=C(CCl)N[C@@H](Cc1ccccc1)C(=O)N1CCCC[C@H]1C(=O)NCCc1c[nH]c2ccc(F)cc12` — result for “second transition share”: 50% (PIN1 (Homo sapiens, UniProt Q13526); thermal shift; two denaturation transitions).
For `CSCC[C@H](NC(=O)[C@@H](NC(=O)[C@H](CCC(=O)O)NC(=O)CN)[C@@H](C)O)C(=O)N[C@@H](CO)C(=O)N[C@@H](CCCCN)C(=O)N[C@@H](CCCNC(=N)N)C(=O)N[C@@H](CC(C)C)C(=O)O`, the Km was 13 µM (NMT1; substrate).
`CCN1CCN(Cc2ccc(NC(=O)c3ccc(C)c(Oc4ncnc5cc(OC)c(OC)cc45)c3)cc2C(F)(F)F)CC1`: “residual probe binding” 0.6% (FLT3 (Homo sapiens, UniProt P36888); KINOMEscan competition binding; 1.0 µM).
Under inhibition, `COc1cc(CC(=O)NCC(NC(=O)C(CCCNC(=O)c2cccc(I)c2)NC(=O)C(Cc2ccc(C(F)(F)P(=O)(O)O)cc2)NC(=O)c2ccc(C)c(Br)c2)C(N)=O)ccc1O` (stereo not drawn) is recorded as “no inhibition” (Tyrosine-protein phosphatase non-receptor type 4 (Homo sapiens, UniProt P29074); enzyme activity; 10 µM).
`CC(C)C[C@@H](NC(=O)[C@H](O)Cc1ccccc1)C(=O)N1[C@H](C(=O)NCCC2=CCN(C(=N)N)C2)C[C@@H]2CC[C@@H](O[C@H]3OC[C@@H](O)[C@H](O)[C@H]3O)C[C@@H]21` — result for inhibition: “no inhibition” (Plasminogen (PLG, Homo sapiens, UniProt P00747); enzyme activity; 100 µg/mL).
`O=C(/C=C/c1nc2ccccc2[nH]1)c1c(-c2ccccc2)c2cc(Cl)ccc2[nH]c1=O`: kinase inhibition “inhibited” (CHEK2 (Homo sapiens, UniProt O96017); SelectScreen profiling; concentration not given, panel of 100 kinases).
The Km of `N=C(N)NCCC[C@H](NC(=O)[C@H](CS)NC(=O)CN)C(=O)N[C@@H](CCC(N)=O)C(=O)N[C@@H](CO)C(=O)N[C@@H](CO)C(=O)N[C@@H](CCC(=O)O)C(=O)N[C@@H](CCC(=O)O)C(=O)O` is reported as 15.7 µM (NMT1; substrate).
For `Fc1cc(-c2ccc3c(n2)[nH]c2ccncc23)ccn1` [isotope labelled], the specific binding was 18.2 a.u. (Microtubule-associated protein tau, paired helical filaments (MAPT, Homo sapiens, UniProt P10636); radioligand binding; PHF tau brain homogenate; 200 nM; higher = more binding).
`Cc1c(O)cc2c(c1C)O[C@](C)(CCCC(C)C)CC2` — result for phosphorylation: “decreased” (measured: Akt Ser473; athymic nude mouse, PC-3-luc xenograft, tumour; intraperitoneal, 50 mg/kg daily, 21 days).
The Hill slope of `C[C@H]1C[C@@H]2[C@H]3CCC4=CC(=O)C=C[C@@]4(C)[C@]3(Cl)[C@@H](Cl)C[C@]2(C)[C@]1(O)C(=O)COP(=O)(O)O` is reported as 1.36 (NR3C1; nuclear translocation, agonist, enzyme fragment complementation).
`O=C(Nc1cccnn1)N1CC(Oc2ccc(-c3ccccc3F)cn2)C1` — result for “dose for maximal inhibition”: at least 30 mg (FAAH (Homo sapiens, UniProt O00519); enzyme activity, inhibitor; healthy humans, blood; oral, single dose).
`CC(C)[C@H](NC(=O)[C@H](CCCNC(=N)N)NC(=O)[C@H](CO)NC(=O)CN)C(=O)N[C@@H](CO)C(=O)N[C@@H](CCCNC(=N)N)C(=O)N[C@@H](CCC(=O)O)C(=O)N[C@@H](CC(=O)O)C(=O)O` gave a Km of 79.2 µM (NMT1; substrate).
For `O=c1cc(O)n(Cc2ccco2)c(=S)[nH]1`, the Hill slope was -1.3 (Protein lin-28 homolog A, with pre-let-7d (Mus musculus, UniProt Q8K3Y3); HTS dose-response).
The delta Tm of `CC[C@@H]1C(=O)N(C)c2cnc(Nc3ccc(C(=O)NC4CCN(C)CC4)cc3OC)nc2N1C1CCCC1` is reported as -0.11 ± 1.04 °C (ASH1L (Homo sapiens, UniProt Q9NR48); 10 µM).
With `Cn1cc2c(nc(NCCCCNC(=S)Nc3ccc(-c4c5ccc(=O)cc-5oc5cc(O)ccc45)c(C(=O)O)c3)n3nc(-c4ccco4)nc23)n1` the inhibition was 7 ± 5% (ADORA1; binding; CHO; 10 µM, together with: [3H]R-PIA).
`C[C@H]1C[C@H]2[C@H]3CCC4=CC(=O)C=C[C@@]4(C)[C@]3(F)[C@H](O)C[C@]2(C)[C@@]1(O)C(=O)COP(=O)(O)O` gave a maximal activity of 200% (NR3C1; nuclear translocation, agonist, enzyme fragment complementation).
For `CC(C)C[C@H](NC(=O)CNC(=O)CN)C(=O)N[C@@H](Cc1ccccc1)C(=O)N[C@@H](CO)C(=O)N[C@@H](CCCNC(=N)N)C(=O)N[C@@H](Cc1c[nH]c2ccccc12)C(=O)N[C@@H](CCCNC(=N)N)C(=O)O`, the Km was 10.3 µM (NMT1; substrate).
For `O=C(ON1C(=O)C2CN(C(=O)N3CCOCC3)CCN2C1=O)N1CCC(CCc2ccc(Cl)cc2)CC1` (stereo not drawn), the effective dose was at least 10 mg/kg (Palmitoyl-protein thioesterase 1 (Ppt1, Mus musculus, UniProt O88531); enzyme activity, inhibitor, gel-based ABPP; C57BL/6 mice; intraperitoneal, 4 h).
The Km of `CC[C@H](C)[C@H](NC(=O)CNC(=O)[C@H](CCCNC(=N)N)NC(=O)[C@@H](NC(=O)[C@@H](NC(=O)[C@H](CC(C)C)NC(=O)[C@H](C)NC(=O)CN)C(C)C)[C@@H](C)CC)C(=O)O` is reported as 0.5 µM (NMT1; substrate).
For `CCCn1c(=O)c2[nH]c(-c3ccc(OCC(=O)NCCNC(=O)CCCCCNC(=O)COc4ccc(/C=C/C5=[N+]6C(=Cc7ccc(-c8cccs8)n7[B-]6(F)F)C=C5)cc4)cc3)nc2n(CCC)c1=O`, the Bmax was 56 ± 5% (ADORA1; NanoBRET saturation binding; HEK293T expressing NanoLuc-tagged receptor; reference: maximum signal).
